Published values of several laboratories.
Numbered parts are unrelated; each lists some results of a single study. Changes are numbered by the printed parent chain.

Series 1 — method: RNA Bind-n-Seq; molecule type: RNA; medium: in vitro; tested at: 200 nM; notes: whole 134-nt RNA, ends assumed; with: 150 mM LiCl; relative to: input library; reading: higher = stronger binding; all molecules: 7-deaza-guanosine replaces G
Target: Ras GTPase-activating protein-binding protein 1, full length (G3BP1, Homo sapiens, UniProt Q13283)
Chain of UniProt Q13283 (whole entry, looked up): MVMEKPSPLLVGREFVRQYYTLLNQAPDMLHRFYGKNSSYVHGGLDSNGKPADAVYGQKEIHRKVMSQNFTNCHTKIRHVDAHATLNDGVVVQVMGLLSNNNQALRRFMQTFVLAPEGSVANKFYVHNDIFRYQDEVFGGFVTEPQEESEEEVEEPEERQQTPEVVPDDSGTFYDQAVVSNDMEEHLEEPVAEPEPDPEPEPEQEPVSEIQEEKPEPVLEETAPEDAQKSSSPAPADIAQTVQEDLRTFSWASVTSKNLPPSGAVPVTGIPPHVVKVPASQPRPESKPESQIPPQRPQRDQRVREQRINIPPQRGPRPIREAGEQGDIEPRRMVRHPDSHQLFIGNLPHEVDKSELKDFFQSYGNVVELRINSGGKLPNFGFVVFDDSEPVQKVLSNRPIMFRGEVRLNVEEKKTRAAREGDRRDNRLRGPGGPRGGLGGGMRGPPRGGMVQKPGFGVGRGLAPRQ
Sequence	log2 enrichment
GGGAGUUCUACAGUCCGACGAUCCACAAAAAACACGCACCCACACAGACACAGAGGGAAGGGGUUGGGAUGGGGACAGGGUGCACAGCAGGGCGGGGUAGGACCCCAGCCCCUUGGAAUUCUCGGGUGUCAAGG	0.415
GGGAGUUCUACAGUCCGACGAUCGCAGGAAGUAAAAACAAAUGGAAAUGCUUCGGAUAGUGGCAGGGGUGGGGGUUGCUAAGGAAAGGGUGCGAUGGGAGUGGGUAAAGAGUUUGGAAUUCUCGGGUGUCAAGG	-0.164
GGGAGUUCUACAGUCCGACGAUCGUCCUGUGCUACACAUCGUAUGUACCGAAUCGGGAAAAAAAGGGAAAAAAAGGGAGGGAAAGUAUUAUGUUACGCCGUUCGGAUCUGCACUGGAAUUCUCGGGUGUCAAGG	0.028
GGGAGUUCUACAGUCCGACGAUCUUGUGGAAAGGAGGAGAACCCCUGCUGAAAUUCGAGAGGAGUUUGAGCGGCUGCAGAGAGAGAGAGAAGAGAGGAGAUUGCAGCAGCGAAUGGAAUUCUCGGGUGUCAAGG	-1.05
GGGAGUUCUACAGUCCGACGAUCCUCAAGUCCUGUGCUACACAUCGUAUGUACCGAAUCGGGCGGGGCGGGGCGGGGAAAGUAUUAUGUUACGCCGUUCGGAUCUGCACUUCCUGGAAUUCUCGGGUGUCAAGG	0.0835
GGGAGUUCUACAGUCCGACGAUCAAGUCCUGUGCUACACAUCGUAUGUACCGAAUCGGGAAAAAAAGGGAAAGGGAGGGAAAGUAUUAUGUUACGCCGUUCGGAUCUGCACUUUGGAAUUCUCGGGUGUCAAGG	0.0444
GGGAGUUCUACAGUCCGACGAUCUCCUGUGCUACACAUCGUAUGUACCGAAUCGGUUUUUUGGGGUUUUUUGGGGUUUUUUGGAAAGUAUUAUGUUACGCCGUUCGGAUCUGCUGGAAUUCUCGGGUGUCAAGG	0.991
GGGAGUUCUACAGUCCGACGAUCCACAGACAACACGCACCCACACAUACACAGAGGGAAGGGGUUGGGAUGGGGACAGGGUGCACAGCAGGGCGGGGUAGGACCCCAGCCCCUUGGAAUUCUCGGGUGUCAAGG	-0.366
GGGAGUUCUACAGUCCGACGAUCUGUCUGGUGACAAGGAAGAGGAUGCUCCUCAUAGAGAAGAUUACUUUGAGCCCAUUUCUCCUGAUCGGAAUUCUGUUCCCCAGGAAGGGCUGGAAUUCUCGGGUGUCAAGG	-1.31
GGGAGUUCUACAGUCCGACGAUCUAACUUUAGAGGAGGAUCUGAUGGAUAUGGCAGUGGACGUGGAUUUGGGGAUGGAUAUAAUGGGUAUGGAGGAGGACCUGGAGGUGGCAAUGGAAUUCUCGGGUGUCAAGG	0.579
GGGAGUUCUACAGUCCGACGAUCUCAAGUCCUGUGCUACACAUCGUAUGUACCGAAUCGGAAAGGUUUGGAAAAAGGAAAGUAUUAUGUUACGCCGUUCGGAUCUGCACUUCCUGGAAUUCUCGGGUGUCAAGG	-0.558

Series 2 — target: CCNB1, cyclin fold, Cln2 fusion (human); method: yeast growth competition, sequencing; medium: yeast; notes: strong parent motif; relative to: not given; reading: higher = stronger binding
Parent: BRCA2 docking peptide (human); PSIKRNLLNEFDR; partner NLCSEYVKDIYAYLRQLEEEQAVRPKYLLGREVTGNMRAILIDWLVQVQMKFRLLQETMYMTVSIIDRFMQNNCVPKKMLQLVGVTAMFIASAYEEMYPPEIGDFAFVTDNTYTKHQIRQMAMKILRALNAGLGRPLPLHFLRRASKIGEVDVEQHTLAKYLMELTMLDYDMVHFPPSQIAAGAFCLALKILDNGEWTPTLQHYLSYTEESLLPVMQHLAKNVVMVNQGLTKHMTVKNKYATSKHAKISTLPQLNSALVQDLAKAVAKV
Change	normalised enrichment score
P1H	2.61
I3T	0.447
L8H	0.583
N6I	0.101
S2W	-0.386
I3V	3.21
N6K	0.745
N6V	0.498
P1T	2.14
E10L	0.406
I3P	0.368
N9I	3
S2E	1.13
P1Q	3.48
L8A	1.16
L8R	-1.02
L8M	3.13
P1K	2.15
N9E	2.31
R5A L7A	-0.142
D12H	0.623
D12P	1.12
K4W	0.0274
R13C	2.61

Series 3 — method: EMSA with sequencing; molecule type: double-stranded DNA, one strand shown; medium: in vitro; tested at: 10 and 20 nM; relative to: negative control set to 0; reading: higher = stronger binding
Target: Hepatocyte nuclear factor 3-alpha (Foxa1, Mus musculus, UniProt P35582, residues 1-468, full length assumed)
Chain of UniProt P35582 (whole entry, looked up): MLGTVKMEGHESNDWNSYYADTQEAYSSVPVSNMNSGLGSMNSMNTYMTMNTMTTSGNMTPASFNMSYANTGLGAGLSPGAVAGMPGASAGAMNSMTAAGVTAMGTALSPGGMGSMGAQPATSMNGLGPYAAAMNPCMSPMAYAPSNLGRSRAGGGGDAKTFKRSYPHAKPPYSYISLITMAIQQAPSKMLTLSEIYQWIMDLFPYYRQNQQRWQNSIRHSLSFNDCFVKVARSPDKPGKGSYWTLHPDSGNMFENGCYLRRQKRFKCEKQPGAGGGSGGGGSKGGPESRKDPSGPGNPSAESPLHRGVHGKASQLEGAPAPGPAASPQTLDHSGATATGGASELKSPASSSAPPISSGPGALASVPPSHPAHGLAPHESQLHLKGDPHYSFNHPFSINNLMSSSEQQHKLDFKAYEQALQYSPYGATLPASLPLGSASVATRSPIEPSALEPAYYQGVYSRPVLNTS
Notes: whole designed probe, mean of two concentrations, ends assumed
Sequence	normalised bound fraction
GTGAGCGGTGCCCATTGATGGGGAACATAATCTGAGGTGGCGACTGGCCAGATAGCCTGCCCCTACTCACTCTGGCTATAAAATAAGCCTACAGTATCCACAAGGGGAAATACTAACAGTGTAAACAAGCACATCAAGGTGCAGTCAAAGAAGCCAGGTCCCCACTGATGAGATGAAGAAAATAACCACCTAAGTCTCAGGTCCCTGTATCTGCCTAATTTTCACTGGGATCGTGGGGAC	0.319 ratio
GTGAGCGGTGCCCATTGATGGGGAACGACAGTACATGTTTTAGGATTTTTGGACCACACAGTCTCTGTCACAATGACTCAGCTTTGCCATTGTAGCGTGCAAACAGCCACAAACCATATGCAAACAAATGTATGCCAATAAAACTTGAGGGTGTGGTTATTTACAAAAGCAGGAGGACAGTGGAGTTGGCTTGCAGACAGTCATTTGCAGAGCCCTGATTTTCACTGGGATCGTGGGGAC	0.39 ratio
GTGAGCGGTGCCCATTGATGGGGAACTATTGACATTTGGTGGCATTCAAGATGTTATTTACACTCAGCATACTGAACGTCCGTGCAACTGTTTGCATTAGGTTCAAGCCTCAGGCTCTTTGTTTGCTGAGGTTCACCTAACGTAGTTTAGCCCCATAAAGATTCCTGAAAGAGGCTCTTTGAGCTAAAGCAACTCCATAGAAAGTCATGCATGTGCAGCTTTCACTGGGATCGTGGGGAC	0.44 ratio
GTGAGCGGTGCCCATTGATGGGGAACATCTTCCCCCTCTTCCTTGCCCCACCAGCTCACCTTCCCGGGTTATTTGCACAAAGGAAAATAAATAAAGCCGGCATTCGTTAACGCAGTTCACGCGCATACTGCTGTTTGCTCTGGATCTAACATGGTCCTTTGGCGACGCCAGGCTCCGGGAGAGCAAAGCACCGTGTCAGGGCCATGATCCGGGCTCGCCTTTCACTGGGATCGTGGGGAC	0.375 ratio
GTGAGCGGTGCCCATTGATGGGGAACTGATGATACGTTATAGCATTTCTCTGCTCTGTAAGAGAGGCACCAGGGTCGTGTGCTGGGTCTGGGGTTTGCACATCCGGTTCCATTCGCTGCTGTTGACTCTGGTGTCGGCCGCTGGTGAGCTGGCTGTAGCTGGTCACCTCTGGGTGGTTTCTGGGGCGGTCGCAGGCTGACTAACACACCAAAGGTCAGCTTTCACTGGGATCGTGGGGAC	0.000689 ratio

Series 4 — method: DHFR PCA, deep sequencing; medium: yeast; with: (+)-ABA 2500 µM; relative to: wild-type fitted maximum; reading: higher = stronger binding
Target: ABI1, truncated, D143A, DHFR fusion (Arabidopsis thaliana)
Notes: methotrexate growth selection, single substitutions
Parent: PYL1, truncated, DHFR fusion (Arabidopsis thaliana); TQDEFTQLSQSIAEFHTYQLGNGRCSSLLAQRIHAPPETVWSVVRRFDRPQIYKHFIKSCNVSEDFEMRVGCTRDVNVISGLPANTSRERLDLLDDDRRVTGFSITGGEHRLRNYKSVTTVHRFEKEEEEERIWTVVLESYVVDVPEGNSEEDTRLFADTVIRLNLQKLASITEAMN; partner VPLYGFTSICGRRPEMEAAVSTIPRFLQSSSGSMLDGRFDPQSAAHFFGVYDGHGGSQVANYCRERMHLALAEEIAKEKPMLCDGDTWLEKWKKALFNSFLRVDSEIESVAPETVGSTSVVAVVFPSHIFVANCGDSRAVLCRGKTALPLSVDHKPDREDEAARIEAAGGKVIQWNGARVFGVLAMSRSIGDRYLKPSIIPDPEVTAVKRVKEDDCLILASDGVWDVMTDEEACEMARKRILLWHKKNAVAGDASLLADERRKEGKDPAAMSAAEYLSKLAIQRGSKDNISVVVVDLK
Change	relative binding score [%]
V137Q	4.96
A35E	75.9
V43F	88.3
E147I	95.7
V143I	79.2
L169K	-4
E64C	92.9
C60V	97
I33D	-9.64
F124A	104
K126R	105
I33A	73.2
T6E	108
R69G	92.8
I79N	93.2
E130R	105
E67S	95
E147L	93.3
S9W	87.7
V136A	88.2
E174I	91

Series 5 — method: protein-binding microarray; molecule type: double-stranded DNA, one strand shown; medium: in vitro; tested at: 2540 nM top; notes: 60-bp whole probe; with: salmon DNA 0.4 mg/ml; relative to: random background probes; reading: higher = stronger binding; shared flanks, not repeated: GCCTAGCAC … GTCTTGATTCGCTTGACGCTGCTG
Target: Interferon regulatory factor 3, full length, phosphomimetic (IRF3, Homo sapiens, UniProt Q14653, residues 1-427, S386D/S396D/S398D/S402D/T404D/S405D)
Construct (chain): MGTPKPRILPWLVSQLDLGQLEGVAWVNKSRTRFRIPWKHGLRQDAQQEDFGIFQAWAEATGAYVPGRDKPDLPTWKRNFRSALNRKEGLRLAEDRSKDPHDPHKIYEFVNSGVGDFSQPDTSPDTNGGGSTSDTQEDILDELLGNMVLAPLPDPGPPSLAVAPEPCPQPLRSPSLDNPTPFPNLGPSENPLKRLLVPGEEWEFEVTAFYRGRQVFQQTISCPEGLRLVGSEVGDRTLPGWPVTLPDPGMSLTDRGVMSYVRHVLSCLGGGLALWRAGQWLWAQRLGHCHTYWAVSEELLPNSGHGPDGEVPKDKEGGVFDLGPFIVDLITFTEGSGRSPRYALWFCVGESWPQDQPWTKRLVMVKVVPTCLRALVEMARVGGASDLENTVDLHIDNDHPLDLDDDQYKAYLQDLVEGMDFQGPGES
Sequence	fitted relative affinity [z-score]
TCAATTTTCAGAATTTAACTGTGCTAG	1.32
TTAGGTTTCGGGACTGGGTTGGTGCTA	4.4
TATCAGCAAACTTTTCTTGAGTGCTAG	0.195
GACGATTTCAGTATCAAGACGTGCTAG	2.15
TTAGATTTCAGACTGCATTAGTGCTAG	0.746
GACAGTATCGACACTGGGGACGTGCTA	0.472
GACGGTATCGACACTGGGGATGTGCTA	0.522
TTAGATTTCAATATCGATTAGTGCTAG	1.4
TTTGATATCAGTCTCGATTAGTGCTAG	1.44
CTTTCTTTAACATATTCTCTTGTGCTA	5.56
ATCCTTGTCCCTCCGGGAGCGTGCTAG	0.342
TACTATATGCATGTAAATAAGTGCTAG	0.226
TCAACTTTCCCCTTCCTACTGTGCTAG	3.11
TCAGTGCTCCTTTTAATACTGTGCTAG	2.42
TCATCTTTGCAGATAAAACTGTGCTAG	0.735
TTAGGACTGGGGTTTCCGTTAGTGCTA	1.01
GTCAGTTTTGAGCTCTGTCTGTGCTAG	0.711

Repeated from above (series 5):
Sequence	fitted relative affinity [z-score]
GACAGTATCGACACTGGGGACGTGCTA	0.472
TTAGGACTGGGGTTTCCGTTAGTGCTA	1.01
TCAGTGCTCCTTTTAATACTGTGCTAG	2.42
TTAGATTTCAGACTGCATTAGTGCTAG	0.746
CTTTCTTTAACATATTCTCTTGTGCTA	5.56
